Published values of several laboratories.
Each numbered part is a random draw from the data of one study; scales do not carry over between parts. Changes are numbered by the printed parent chain.

Sample 1
Target: RING finger protein unkempt homolog, zinc fingers 1-6, GST-SBP tag (UNK, Homo sapiens, UniProt Q9C0B0, residues 30-357)
UniProt Q9C0B0, sequence (30-357, looked up): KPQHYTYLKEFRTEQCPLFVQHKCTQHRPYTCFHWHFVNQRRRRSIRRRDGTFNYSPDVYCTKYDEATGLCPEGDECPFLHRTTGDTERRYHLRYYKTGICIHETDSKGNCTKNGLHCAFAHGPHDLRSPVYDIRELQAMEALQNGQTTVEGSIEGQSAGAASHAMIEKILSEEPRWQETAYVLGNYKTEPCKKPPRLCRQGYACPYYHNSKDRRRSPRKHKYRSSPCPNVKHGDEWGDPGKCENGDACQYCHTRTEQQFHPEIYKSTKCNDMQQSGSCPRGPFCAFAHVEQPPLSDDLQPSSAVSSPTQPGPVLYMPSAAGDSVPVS
Method: RNA Bind-n-Seq
Form: RNA
Medium: in vitro
Tested at: not given
Notes: RNA with constant flanks, human and mouse sites, ends assumed
Reference: input RNA pool
Direction: higher = stronger binding
Shared flanks, not repeated: GGGAGUUCUACAGUCCGACGAUC … CAACAGAGGAUUGAGCAUCA
| Oligonucleotide | bound/input enrichment [ratio] |
| --- | --- |
| AUCGUGGGAGCACUGAUGGCAAGUGGAAAAGAAGUAGCAGGAAAAAUUCCCAAAGGGAAGUUAGUCGACUUUGAAGCUAUGACAGCCCCUGGUUCAGAGGCCUUUAGCAAAGUCGCCAAA | 0.234 |
| AAUAAACAGGAUAUGAAAGGGUGUAUGACAGCAGCUGAAAUCUCGAAAUACCUCACCCUUAGUUCAAUUAAGGAUCAUCCAUGGCACAUUCAAUCCUGCUGUGCUCUCACAGGAGAAGGG | 0.22 |
| GAGGUCCUGCAGUGGCGCCAGUCCCUGGACAAGCUUCUCCAGAACAGCUAUGGAUUUGCCAGCUUCAAAAGUUUCCUGAAGUCUGAAUUCAGUGAGGAAAACCUUGAGUUCUGGGUUGCC | 0.276 |
| AUAGUUUCUUUACAUUGCUGUGCCCUUUAUACCUGUGCCCAGCUGGAGAAUAAUUUGUAUUGGUGGGGUGUUGUUCCUUUCAGUCAAAGGAAGAAAAUGUUAGAGAAAGCUAGAGCAAAA | 1.82 |
| UUCUUGAAGGCUAUUGGGUAUCUUAUUCCUCUUAUGGAUGCAGAAUAUGCCAACUACUAUACUAGAGAAGUGAUGUUAAUCCUUAUUCGAGAAUUCCAGUCUCCUGAUGAGGAAAUGAAA | 0.404 |
| UUACCCGAGAACGAGGAUGAGCUGGAGAGCACCAACAGGCGCUACACCAAGAGGGACUGCAGCACUUUCCUCAGAACUAGUGAGACGGGCAUCGUGGACCAGGUCAUGGUCACUCUCAAC | 0.102 |
| UUAACAAAAGAAUUCCCUGUAUCAUCUGGAUCUCAACAUCGGAAAAAAGAAGCGGAUAGUGUUUAUGGAGAAUGGGUUCCUGUGGAGAAAAAUGGUGAAGAAAACAAAGAUGAUGAUAAU | 0.554 |
| UCCCACAUGAUGCUGGCCUUUACGAUGUGGAACCCUUGGAUUGCUAUGUGUCUUCUGGGACUCUCCUACUCAUUGCUUGCCUGUGCAUUGUGGCCAAUGGUGGCAUUUGUAGUUCCUGAA | 0.196 |

Sample 2
Target: CCNB1, cyclin fold, Cln2 fusion (human)
Method: yeast growth competition, sequencing
Medium: yeast
Notes: strong parent motif
Reference: not given
Direction: higher = stronger binding
Starting sequence: BRCA2 docking peptide (human); PSIKRNLLNEFDR; partner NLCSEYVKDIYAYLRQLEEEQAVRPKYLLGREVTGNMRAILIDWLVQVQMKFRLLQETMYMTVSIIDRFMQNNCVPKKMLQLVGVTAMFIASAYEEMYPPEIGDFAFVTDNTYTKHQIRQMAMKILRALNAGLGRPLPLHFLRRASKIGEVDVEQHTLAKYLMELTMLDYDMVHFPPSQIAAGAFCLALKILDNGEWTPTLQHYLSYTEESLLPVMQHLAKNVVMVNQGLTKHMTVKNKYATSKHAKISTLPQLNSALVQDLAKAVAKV
| Change | normalised enrichment score |
| --- | --- |
| F11H | -0.0377 |
| F11V | 1.03 |
| I3Q | 0.852 |
| N9S | 2.72 |
| N6F | 0.911 |
| K4S | 1.99 |
| E10Q | 1.38 |
| N6G | 0.485 |
| S2T | 3.08 |
| N9Q | 2.69 |
| N6C | 0.933 |
| L8Y | 1.61 |
| R13S | 3.66 |
| L8D | 0.608 |
| F11P | -0.281 |
| D12C | 1.57 |
| S2F | 0.62 |
| S2L | 2.14 |
| L7K | 0.388 |
| I3K | 0.619 |
| D12W | 1.89 |
| N6D | 1.15 |
| N9C | 2.02 |
| P1N | 2.62 |
| D12M | 1.66 |

Sample 3
Target: Histone acetyltransferase KAT6A, winged helix 2, GST fusion (KAT6A, Homo sapiens, UniProt Q92794, residues 85-181)
Method: protein binding microarray
Form: double-stranded DNA, one strand shown
Medium: in vitro
Tested at: not given
Notes: 8-mer, flanks averaged, mean of 2 arrays, mostly near background
Reference: not given
Direction: higher = stronger binding
Construct (chain): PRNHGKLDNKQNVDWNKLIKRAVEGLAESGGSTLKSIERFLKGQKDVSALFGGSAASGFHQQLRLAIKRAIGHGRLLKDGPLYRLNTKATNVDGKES
| Oligonucleotide | E-score |
| --- | --- |
| CACAGACA | 0.0954 |
| CTGCCGCC | 0.263 |
| CGAAGCGA | 0.0833 |
| CGTGAACA | 0.0248 |
| ATCAAGTG | -0.128 |
| AACGGAAT | 0.00275 |
| GACACACC | 0.054 |
| TCGAACAA | 0.126 |
| CCGCTATC | 0.149 |
| GCAACAAC | 0.101 |
| CGCACTAA | 0.16 |
| CCAATTGC | -0.0581 |
| GATTATGA | -0.0529 |
| CAGCGGGG | 0.257 |
| CTCATTGA | -0.108 |
| AAGCCACT | -0.058 |
| AAAAACGT | -0.115 |
| ATAGATTA | 0.0459 |
| CCAGTGGA | 0.0132 |
| AACGGCCC | 0.0565 |
| ATCCACAC | -0.0204 |
| AGATCCTC | -0.143 |
| AAGCTAAG | -0.163 |
| AGTGCTCA | -0.00775 |
| AGCGACAG | -0.00336 |

Sample 4
Target: Ras GTPase-activating protein-binding protein 1, C-terminal RGG region (G3BP1, Homo sapiens, UniProt Q13283)
UniProt Q13283, sequence (whole entry, looked up): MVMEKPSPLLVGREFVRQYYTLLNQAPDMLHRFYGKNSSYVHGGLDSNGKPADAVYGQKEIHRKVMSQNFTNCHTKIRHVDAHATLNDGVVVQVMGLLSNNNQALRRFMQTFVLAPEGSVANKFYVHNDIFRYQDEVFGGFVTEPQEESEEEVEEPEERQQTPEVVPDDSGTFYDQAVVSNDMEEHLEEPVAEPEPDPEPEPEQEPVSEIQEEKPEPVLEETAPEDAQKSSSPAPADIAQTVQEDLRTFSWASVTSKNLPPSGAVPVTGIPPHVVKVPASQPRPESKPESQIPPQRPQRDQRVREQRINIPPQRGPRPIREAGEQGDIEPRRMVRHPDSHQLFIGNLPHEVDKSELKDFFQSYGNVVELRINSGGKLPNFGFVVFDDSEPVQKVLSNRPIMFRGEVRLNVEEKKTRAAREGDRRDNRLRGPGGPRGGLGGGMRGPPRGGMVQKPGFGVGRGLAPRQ
Method: RNA Bind-n-Seq
Form: RNA
Medium: in vitro
Tested at: 1 µM
Notes: whole 134-nt RNA, ends assumed
With: 150 mM KCl
Reference: input library
Direction: higher = stronger binding
Shared flanks, not repeated: GGGAGUUCUACAGUCCGACGAUC … UGGAAUUCUCGGGUGUCAAGG
| Oligonucleotide | log2 enrichment |
| --- | --- |
| GCAGGAAGUAAAAACAAAUGGAAAUGCUUCGGAUAGUGGCAGGGGUGGGGGUUGCUAAGGACAGGGUGGGAUGGGAGUGGGUAAAGAGUU | 1.44 |
| CACAGACAACACGCACCCACACAGACACCGAGGGAAGGGGUUGGGAUGGGGACAGGGUGCACAGCAGGGCGGGGUAGGACCCCAGCCCCU | -0.133 |
| AGUCCUGUGCUACACAUCGUAUGUACCGAAUCGGGGAGGGGAAAGGGGUUUUUGGGGAAAGUAUUAUGUUACGCCGUUCGGAUCUGCACU | 2.48 |
| UGGCCCUGGUGGCAUGCGAGGAGGAAGAGGUGGCCUCAUGGAUCGUGGUGGUCCCGGUGGAAUGUUCAGAGGUGGCCGUGGUGGAGACAG | 1.84 |
| GCAGGAAGUAAAAACAAAUGGAAAUGCUUCGGAUAGUGGCAGGGGUGGGGGUUGCAAAGGAAAGGGUGGGAUGGGAGUGGGUAAAGAGUU | 1.64 |
| UCCUCAAGUCCUGUGCUACACAUCGUAUGUACCGAAUCGGCGGGGCGGCGGGAAAGUAUUAUGUUACGCCGUUCGGAUCUGCACUUCCAG | -0.367 |
| AAGUCCUGUGCUACACAUCGUAUGUACCGAAUCGGUUUUUUUGGAAAAAGGAAAGGAAAGUAUUAUGUUACGCCGUUCGGAUCUGCACUU | -2.29 |
| AGUCCUGUGCUACACAUCGUAUGUACCGAAUCAAAUUUAAAUUUAAAUUUUUUUAAAAAAGUAUUAUGUUACGCCGUUCGGAUCUGCACU | -2.6 |
| CACAGACAACACGCACCCACACAGACACAGAGGGAAGGGGUUGGGAAAAGGACAGGGUGCACAGCAGGGCGGGGUAGGACCCCAGCCCCU | -0.0928 |

Some of these lines once more (sample 3):
| Oligonucleotide | E-score |
| --- | --- |
| AAGCCACT | -0.058 |
| ATCCACAC | -0.0204 |
| ATAGATTA | 0.0459 |
| AGATCCTC | -0.143 |
| CTGCCGCC | 0.263 |
| CAGCGGGG | 0.257 |
| ATCAAGTG | -0.128 |
| CGCACTAA | 0.16 |
| GATTATGA | -0.0529 |
